{"data": "Measurements of several laboratories", "note": "Each line is one published result; not all experiments were run side by side. ± marks the error that the study gave."}
{"Compound": "COC1=CC(c2ccc[nH]2)=NC1=CNC12CC3CC(CC(C3)C1)C2", "organism": "Plasmodium falciparum", "test": "parasite growth", "test system": "Dd2, chloroquine-resistant", "IC50": "2.6 nM"}
{"Compound": "CC=CCCCCOP(=O)(O)Oc1c2c(c(OP(=O)(O)OCCCCC=CC)c3c1C1CC3c3cc4c(cc31)C1CC4c3ccccc31)C1CC2c2cc3c(cc21)C1CC3c2ccccc21", "organism": "measles virus", "test": "viral infection, flow cytometry", "test system": "A549, vaccine strain GFP", "setting": "2 days, virus pre-incubated 30 min 37 °C", "IC50": "5100 nM"}
{"Compound": "C/C=C1\\NC(=O)[C@H](Cc2ccccc2)NC(=O)[C@H](C(C)C)NC(=O)[C@H](Cc2ccccc2)NC(=O)[C@H](CCC(N)=O)NC(=O)[C@H](Cc2c[nH]c3ccccc23)NC(=O)[C@H]2CSC[C@@H](C(=O)N[C@@H](CO)C(=O)O)NC(=O)[C@H](CSC[C@H]3NC(=O)[C@H]([C@@H](C)CC)NC(=O)[C@H](NC(=O)[C@H](Cc4c[nH]cn4)NC(=O)[C@@H](NC(=O)[C@@H](NC(=O)CNC(=O)[C@H](CO)NC(=O)CNC(=O)CNC(=O)[C@@H](N)CCCCN)C(C)C)[C@@H](C)CC)[C@H](C)SC[C@H](NC(=O)[C@H](CCC(=O)O)NC(=O)[C@H](Cc4c[nH]cn4)NC3=O)C(=O)N[C@@H](CC(N)=O)C(=O)N[C@@H](CCSC)C(=O)N[C@@H](CC(N)=O)C(=O)N2)NC1=O", "organism": "Lactococcus lactis subsp. cremoris", "test": "growth, OD600", "test system": "HP ATCC 11602", "setting": "6 h, 30 °C", "IC50": "300 ± 70 nM"}
{"Compound": "CCC1=CC(=CNC2CCCCCCC2)N=C1c1ccc[nH]1", "organism": "Plasmodium falciparum", "test": "parasite growth", "test system": "Dd2, chloroquine-resistant", "IC50": "> 250 nM"}
{"Compound": "CCCCCCCOP(=O)(O)Oc1c2c(c(OP(=O)(O)OCCCCCCC)c3c1C1CC3c3cc4c(cc31)C1CC4c3ccccc31)C1CC2c2cc3c(cc21)C1CC3c2ccccc21", "organism": "measles virus", "test": "viral infection, flow cytometry", "test system": "A549, vaccine strain GFP", "setting": "2 days, virus pre-incubated 30 min 37 °C", "IC50": "4000 nM"}
{"Compound": "C/C=C1\\NC(=O)[C@H](Cc2ccccc2)NC(=O)[C@H](C(C)C)NC(=O)[C@H](Cc2ccccc2)NC(=O)[C@H](CCC(N)=O)NC(=O)[C@H](Cc2c[nH]c3ccccc23)NC(=O)[C@H]2CSC[C@@H](C(=O)N[C@@H](CO)C(=O)O)NC(=O)[C@H](CSC[C@H]3NC(=O)[C@H]([C@@H](C)CC)NC(=O)[C@H](NC(=O)[C@H](Cc4c[nH]cn4)NC(=O)[C@@H](NC(=O)[C@@H](NC(=O)CNC(=O)[C@H](CO)NC(=O)CNC(=O)CNC(=O)[C@@H](N)CCCCN)C(C)C)[C@@H](C)CC)[C@H](C)SC[C@H](NC(=O)[C@H](CCC(=O)O)NC(=O)[C@H](Cc4c[nH]cn4)NC3=O)C(=O)N[C@@H](CC(N)=O)C(=O)N[C@@H](CCSC)C(=O)N[C@@H](CC(N)=O)C(=O)N2)NC1=O", "organism": "Bacillus subtilis", "test": "bacterial growth", "test system": "ATCC 6633", "IC50": "980 ± 110 nM"}
{"Compound": "CCC1(O)C([N+](=O)[O-])=NNc2nc(C(F)(F)F)nn21 (centres unmarked)", "organism": "Enterovirus B", "test": "viral replication, inhibitor", "test system": "Vero, B3", "setting": "48 h", "IC50": "129000 nM"}
{"Compound": "CC(C)=CCC/C(C)=C/CNCCOC1C2CC3CC(C2)CC1C3 (centres unmarked)", "organism": "Bacillus subtilis", "test": "microbial growth", "IC50": "16 µg/mL"}
{"Compound": "CCC1(O)C([N+](=O)[O-])=NNc2nc(C)nn21 (centres unmarked)", "organism": "Enterovirus B", "test": "viral replication, inhibitor", "test system": "Vero, B3", "setting": "48 h", "IC50": "> 220000 nM"}
{"Compound": "O=P(O)(OCc1ccccc1)Oc1c2c(c(OP(=O)(O)OCc3ccccc3)c3c1C1CC3c3cc4c(cc31)C1CC4c3ccccc31)C1CC2c2cc3c(cc21)C1CC3c2ccccc21", "organism": "measles virus", "test": "viral infection, flow cytometry", "test system": "A549, vaccine strain GFP", "setting": "2 days, virus pre-incubated 30 min 37 °C", "IC50": "2700 nM"}
{"Compound": "CN1CCN(C(=O)N[C@@H](Cc2ccccc2)C(=O)N[C@H](/C=C/S(=O)(=O)c2ccccc2)CCc2ccccc2)CC1", "organism": "Xenotropic murine leukemia virus", "test": "viral entry", "test system": "HEK-293T", "setting": "pseudovirus", "IC50": "> 100 nM"}
{"Compound": "COC1=CC(c2ccc[nH]2)=NC1=CN1CCCCC1", "organism": "Plasmodium falciparum", "test": "parasite growth", "test system": "7G8, chloroquine-resistant", "IC50": "> 2500 nM"}
{"Compound": "O=P(O)(OCCc1ccccc1)Oc1c2c(c(OP(=O)(O)OCCc3ccccc3)c3c1C1CC3c3cc4c(cc31)C1CC4c3ccccc31)C1CC2c2cc3c(cc21)C1CC3c2ccccc21", "organism": "measles virus", "test": "viral infection, flow cytometry", "test system": "A549, vaccine strain GFP", "setting": "2 days, virus pre-incubated 30 min 37 °C", "IC50": "1900 nM"}
{"Compound": "CCOc1ccccc1CN(OC)C(=O)CSc1c[nH]c2cccc(Br)c12", "organism": "human coronavirus NL63", "test": "viral replication, MTS", "test system": "LLC-MK2", "setting": "120 h", "IC50": "> 50000 nM"}
{"Compound": "CC1OC(OC2CC(O)C3(CO)C4C(O)CC5(C)C(C6COC(=O)C6)CCC5(O)C4CCC3(O)C2)C(O)C(O)C1O (centres unmarked)", "organism": "transmissible gastroenteritis virus", "test": "viral replication, immunofluorescence", "test system": "ST cells", "setting": "6 h post-infection, pretreated 1 h", "IC50": "3130 ± 842 nM"}
{"Compound": "CCOC(=O)c1cnn2c1NN=C([N+](=O)[O-])C2(O)CC (centres unmarked)", "organism": "Enterovirus B", "test": "viral replication, inhibitor", "test system": "Vero, B3", "setting": "48 h", "IC50": "> 353000 nM"}
{"Compound": "COC1=CC(c2ccc[nH]2)=NC1=CNC1CCCCCCC1", "organism": "Plasmodium falciparum", "test": "parasite growth", "test system": "Dd2, chloroquine-resistant", "IC50": "7.1 nM"}
{"Compound": "C=CCCCOP(=O)(O)Oc1c2c(c(OP(=O)(O)OCCCC=C)c3c1C1CC3c3cc4c(cc31)C1CC4c3ccccc31)C1CC2c2cc3c(cc21)C1CC3c2ccccc21", "organism": "measles virus", "test": "viral infection, flow cytometry", "test system": "A549, vaccine strain GFP", "setting": "2 days, virus pre-incubated 30 min 37 °C", "IC50": "13400 nM"}
{"Compound": "CC(C)C1=CC(=CNC23CC4CC(CC(C4)C2)C3)N=C1c1ccc[nH]1", "organism": "Plasmodium falciparum", "test": "parasite growth", "test system": "Dd2, chloroquine-resistant", "IC50": "20 nM"}
{"Compound": "C#CCCCCOP(=O)(O)Oc1c2c(c(OP(=O)(O)OCCCCC#C)c3c1C1CC3c3cc4c(cc31)C1CC4c3ccccc31)C1CC2c2cc3c(cc21)C1CC3c2ccccc21", "organism": "measles virus", "test": "viral infection, flow cytometry", "test system": "A549, vaccine strain GFP", "setting": "2 days, virus pre-incubated 30 min 37 °C", "IC50": "41300 nM"}
